Experimental data of several laboratories.
Protocols differ between the studies behind these lines. ± gives the spread as reported.
rep main protease: Replicase polyprotein 1ab, main protease (rep, Severe acute respiratory syndrome coronavirus 2, UniProt P0DTD1)

Compound	tested on	assay	test system	conditions	scale	measurement	value
CC[C@H](C)[C@H](NC(=O)[C@H](CC(C)C)NC(=O)[C@H](Cc1c[nH]c2ccccc12)NC(=O)[C@H](CCC(N)=O)NC(=O)[C@@H](NC(=O)[C@H](Cc1ccccc1)NC(=O)[C@H](C)NC(=O)[C@H](CCCCNC(=O)COCCOCCNC(=O)COCCOCCNC(=O)CC[C@H](NC(=O)CCCCCCCCCCCCCCCCCCC(=O)O)C(=O)O)NC(=O)[C@H](CCC(N)=O)NC(=O)[C@H](C)NC(=O)[C@@H](NC(=O)[C@H](CCCCN)NC(=O)[C@H](CC(=O)O)NC(=O)[C@H](CC(C)C)NC(=O)C(C)(C)NC(=O)[C@@H](NC(=O)[C@H](CO)NC(=O)[C@H](Cc1ccc(O)cc1)NC(=O)[C@H](CC(=O)O)NC(=O)[C@H](CO)NC(=O)[C@@H](NC(=O)[C@H](Cc1ccccc1)NC(=O)[C@@H](NC(=O)CNC(=O)[C@H](CCC(=O)O)NC(=O)C(C)(C)NC(=O)[C@@H](N)Cc1ccc(O)cc1)[C@@H](C)O)[C@@H](C)O)[C@@H](C)CC)[C@@H](C)CC)C(C)C)C(=O)N[C@@H](C)C(=O)NCC(=O)NCC(=O)N1CCC[C@H]1C(=O)N[C@@H](CO)C(=O)N[C@@H](CO)C(=O)NCC(=O)N[C@@H](C)C(=O)N1CCC[C@H]1C(=O)N1CCC[C@H]1C(=O)N1CCC[C@H]1C(=O)N[C@@H](CO)C(N)=O			healthy subjects, single ascending dose	0.5 mg, baseline		serum lipase	28.8 ± 19.1 U/L
COc1ccc(-c2ccnc3[nH]cc(C#Cc4cccnc4)c23)cc1F	Venezuelan equine encephalitis virus	viral replication	U-87 MG, TC-83			EC50	2.04 ± 0.58 µM
O=c1c(-c2ccc(O)cc2)coc2c([C@@H]3O[C@H](CO[C@@H]4OC[C@@H](O)[C@H](O)[C@H]4O)[C@@H](O)[C@H](O)[C@H]3O)c(O)ccc12	rep main protease	reporter gene (Gaussia luciferase), inhibitor		20 µM		inhibition	-0.894%
CN(C)S(=O)(=O)NCC1CCOC2(CCN(C(=O)C3(c4ccncc4)CCCC3)CC2)C1 (stereo not drawn)	Venezuelan equine encephalitis virus	viral replication				EC50	> 39.8 µM
CS(=O)(=O)c1cc(C#N)cc(NC(=O)CCl)c1	Venezuelan equine encephalitis virus	viral replication	MRC5			IC50	0.11 ± 0.02 µM
Nc1ncnc2c([C@@H]3N[C@H](CO)[C@@H](O)[C@H]3O)c[nH]c12	Venezuelan equine encephalitis virus	viral replication	HeLa, SH3	3.1 µM		inhibition	0.2%
COc1ccc(-c2ncnc3[nH]nc(C#Cc4cccnc4)c23)cc1OC	Venezuelan equine encephalitis virus	viral replication	U-87 MG, TC-83			EC50	4.22 ± 1.68 µM
CN(C)S(=O)(=O)NCC1CCOC2(CCN(C(=O)C3(c4ccccc4)CCCO3)CC2)C1 (stereo not drawn)	Venezuelan equine encephalitis virus	viral replication		40 µM		inhibition	< 10%
C(#Cc1c[nH]c2nccc(-c3ccsc3)c12)c1cccnc1	Venezuelan equine encephalitis virus	viral replication	U-87 MG, TC-83			EC50	2.09 ± 0.14 µM
C=CC(=O)N1CCCC(C(=O)O)(C(F)(F)F)C1 (stereo not drawn)	Venezuelan equine encephalitis virus	viral replication	MRC5			IC50	4.7 ± 1.6 µM
NCC1(O)CCOC2(CCN(C(=O)C3(c4ccccc4)CCCC3)CC2)C1 (stereo not drawn)	Venezuelan equine encephalitis virus	viral replication		40 µM		inhibition	70%
O=c1nc(NO)ccn1[C@@H]1O[C@H](CO)[C@@H](O)[C@H]1O	Venezuelan equine encephalitis virus	viral replication, nLuc reporter	TC-83 nLuc-nsP3			IC50	1.6 ± 0.5 µM
COc1ccc(-c2ncnc3[nH]cc(C#Cc4cccnc4)c23)cc1OC	Venezuelan equine encephalitis virus	viral replication	U-87 MG, TC-83			EC50	6.04 ± 1.38 µM
CC(C)=CCc1c(O)c(CC=C(C)C)c2oc3c(O)ccc(O)c3c(=O)c2c1O	rep main protease	reporter gene (mKate2), inhibitor		20 µM		inhibition	0.17%
CS(=O)(=O)NCC1CCOC2(CCN(C(=O)C3(c4ccccc4)CCC3)CC2)C1 (stereo not drawn)	Venezuelan equine encephalitis virus	viral replication				EC50	> 39.8 µM
CS(=O)(=O)C=CCNC(=O)c1ccc2c(c1)NC(=O)CC2	Venezuelan equine encephalitis virus	viral replication	MRC5			IC50	> 10 µM
O=C(N1CCC2(CC1)C[C@H](CN1CCCCS1(=O)=O)CCO2)C1(c2ccccc2)CCCC1	Venezuelan equine encephalitis virus	viral replication	MRC5			EC50	0.27 µM
CNC(=O)[C@@H](NC(=O)[C@H](CC(C)C)[C@H](O)C(=O)NO)C(C)(C)C	C2C12			1 µM, together with: KA venom	baseline: venom alone	viability difference	12.7%
O=C(NCC1CCOC2(CCN(C(=O)C3(c4ccccc4)CCCC3)CC2)C1)Nc1ccccc1 (stereo not drawn)	Venezuelan equine encephalitis virus	viral replication				EC50	> 39.8 µM
Cn1cc(-c2ncc(C(=O)NCC=CS(C)(=O)=O)s2)cn1	Venezuelan equine encephalitis virus	viral replication	MRC5			IC50	> 10 µM
Cn1cnc(Cn2c(=O)[nH]/c(=N\c3cc4cn(C)nc4cc3Cl)n(Cc3cc(F)c(F)cc3F)c2=O)n1			human, mild renal impairment	oral, 375 mg		any TEAE, severe severity	0%
